Results from different studies.
Each line is one published result; not all experiments were run side by side. ± marks the error that the study gave.
Target: Transporter (Slc6a2, Rattus norvegicus, UniProt Q63380)

| Structure (SMILES) | test | system | setting | EC50 [nM] |
| --- | --- | --- | --- | --- |
| CC(N)Cc1c[nH]c2ccccc12 (stereo not shown) | transmitter release, releaser | rat brain synaptosomes | with: [3H]MPP+ | 112 ± 6 |
| NC1Cc2ccccc2C1 | – | – | – | 86 ± 13 |
| CNC(C)C(=O)c1ccccc1Br (stereo not shown) | releaser | – | – | 156 |
| COc1ccc2c(c1)CC(N)C2 (stereo not shown) | – | – | – | 861 ± 118 |
| CNC(C)C(=O)c1cccc(Cl)c1 (stereo not shown) | substrate release, releaser | rat brain synaptosomes | with: [3H]MPP+ | 19 |
| CC1NCCOC1c1ccccc1F (stereo not shown) | – | – | concentration not given | 28 ± 3 |
| CNC(C)Cc1ccc2ccoc2c1 (stereo not shown) | transporter-mediated release, substrate | rat brain synaptosomes | 30 min, with: [3H]MPP+ | 14 ± 2 |
| Cc1ccc([C@@H]2OC(N)=N[C@H]2C)cc1 (relative stereo) | substrate release, releaser | rat brain synaptosomes | with: [3H]MPP+ 9 nM | 31.6 ± 4.6 |
| CNC(C)C(=O)c1cccc(OC)c1 (stereo not shown) | releaser | – | – | 111 |
| CNC(C)Cc1ccc2c(c1)OCO2 (single isomer, unassigned; (+)) | substrate release, releaser | rat brain synaptosomes | with: [3H]MPP+ 9 nM | 98.3 ± 15 |
| CNC(C)C(=O)c1ccccc1 (stereo not shown) | substrate release, releasing agent | rat brain synaptosomes | with: [3H]MPP+ | 23 |
| C[C@@H]1N=C(N)O[C@H]1c1ccc2c(c1)OCO2 (racemic) | substrate release, releaser | rat brain synaptosomes | with: [3H]MPP+ 9 nM | 38.9 ± 4.7 |
| Cc1ccc([C@H]2OC(N)=N[C@H]2C)cc1 (racemic) | substrate release, releaser, [3H]MPP+ release | rat brain synaptosomes | with: [3H]MPP+ 9 nM | 26.9 ± 5.9 |

Repeated from above:
| Structure (SMILES) | test | system | setting | EC50 [nM] |
| --- | --- | --- | --- | --- |
| CC(N)Cc1c[nH]c2ccccc12 (stereo not shown) | transmitter release, releaser | rat brain synaptosomes | with: [3H]MPP+ | 112 ± 6 |
| NC1Cc2ccccc2C1 | – | – | – | 86 ± 13 |
